Measured values gathered from unrelated publications.
Lines come from different studies, so protocols differ. ± marks the error that the study gave.

Structure (SMILES)	cell line	test	conditions	scale	quantity	value
CC(=O)Nc1ccc(OC(=O)CCC(=O)[O][Pt-2]23([O]C(=O)CCC(=O)Oc4ccc(NC(C)=O)cc4)([NH2+][C@@H]4CCCC[C@H]4[NH2+]2)[O]C(=O)C(=O)[O]3)cc1	4T1	annexin V/PI	2 µM, 24 h		apoptotic cells	> 50%
CCCCn1c2ccccc2c2ccnc(-c3ccc(OC)cc3)c21	PC-12		200 µM, 48 h		viability inhibition	58 ± 5.39%
CC(=NN=c1sc(C(=O)c2ccccc2)nn1-c1ccccc1)c1ccc(S(=O)(=O)N2CCC(C)CC2)cc1	HepG2	flow cytometry	3.31 µM, 72 h		cells in %G2/M	38.5%
CC(=O)OC[C@H]1O[C@@H](Sc2sc(C(=O)c3ccc(Br)cc3)c(N)c2-c2nc3ccccc3s2)[C@H](OC(C)=O)[C@@H](OC(C)=O)[C@H]1OC(C)=O	M14	SRB	10 µM, 48 h	relative to: untreated	growth	96.1%
COc1cc(CNC(=O)C[C@H](C)CCC=C(C)C)ccc1OCc1cn(-c2cccc([N+](=O)[O-])c2)nn1	OVCAR-3 ovarian cancer cells	SRB	10 µM, 48 h		growth percent	98.4%
O=Cc1c(O)ccc2ccccc12	HUVEC	RNA sequencing, measured: TRIB3	75 µM, 24 h	relative to: DMSO	log2 fold change	3.55
CC(=C(c1ccc(Cl)cc1)c1ccc(OCCN2CCOCC2)cc1)c1ccc(Cl)cc1	NCI-60 tumour cell lines		10 µM, mean over cell lines		growth inhibition	1.51%
COc1cc(CNC(=O)C[C@H](C)CCC=C(C)C)ccc1OCc1cn(-c2ccc([N+](=O)[O-])cc2)nn1	OVCAR-8 ovarian cancer cells	SRB	10 µM, 48 h		growth percent	63.5%
Nc1c(S(=O)(=O)O)cc(Nc2cccc(S(N)(=O)=O)c2)c2c1C(=O)c1ccccc1C2=O	primary mouse articular chondrocytes	real-time PCR, measured: Phlpp2	25 µM		mRNA level	decreased
Clc1ccc(C=[N+]2N=C(Nc3ccccc3)[S][Pd-]2([Cl])[Cl])s1	HEL human lung fibroblasts	altered cell morphology, microscopy	confluent cultures		cytotoxic concentration	100 µM
COc1cc(CNC(=O)C[C@H](C)CCC=C(C)C)ccc1OCc1cn(-c2ccccc2F)nn1	SW-620	SRB	10 µM, 48 h		growth percent	92.7%
Cc1cc(C)nc(SCC(=O)Nc2ncc(Cc3cccc(OCc4cn(Cc5ccc(C#N)cc5)nn4)c3)s2)n1	PC-3M-luc	immunofluorescence	20 µM, 5 h		α-tubulin acetylation	increased
COc1cc(CNC(=O)C[C@H](C)CCC=C(C)C)ccc1OCc1cn(-c2cccc(Cl)c2)nn1	SF-295 CNS cancer cells	SRB	10 µM, 48 h		growth percent	66.8%
CC(=O)Oc1ccccc1C(=O)[O][Pt]([NH2])([NH2])([Cl])([Cl])[O]C(=O)C(Cl)Cl	HEK293 and LoVo	cytotoxicity, MTT		relative to: IC50 HEK293 over IC50 LoVo	selectivity index	0.1
COc1cc(CNC(=O)C[C@H](C)CCC=C(C)C)ccc1O	UACC-257 melanoma cells	SRB	10 µM, 48 h		growth percent	113%
COCCNCC(=O)N(CCCCN)CC(=O)N(CC(=O)N(CC(=O)N(CCCCN)CC(=O)N[C@@H](CCCCN)C(=O)N[C@H](CCCCN)C(=O)N[C@@H](CCSC)C(=O)NCCCC[C@H](NC(=O)[C@H](CCSC)NC(=O)[C@@H](CCCCN)NC(=O)[C@H](CCCCN)NC(=O)CN(CCCCN)C(=O)CN(C(=O)CN(Cc1ccc2c(c1)OCO2)C(=O)CN(CCCCN)C(=O)CNCCOC)[C@H](C)c1ccccc1)C(N)=O)[C@H](C)c1ccccc1)Cc1ccc2c(c1)OCO2	H358	qRT-PCR, measured: PLEC mRNA	6 days		onset concentration	1 µM

For quick reference, copied from above:
Structure (SMILES)	cell line	test	conditions	scale	quantity	value
CC(=O)Nc1ccc(OC(=O)CCC(=O)[O][Pt-2]23([O]C(=O)CCC(=O)Oc4ccc(NC(C)=O)cc4)([NH2+][C@@H]4CCCC[C@H]4[NH2+]2)[O]C(=O)C(=O)[O]3)cc1	4T1	annexin V/PI	2 µM, 24 h		apoptotic cells	> 50%
Nc1c(S(=O)(=O)O)cc(Nc2cccc(S(N)(=O)=O)c2)c2c1C(=O)c1ccccc1C2=O	primary mouse articular chondrocytes	real-time PCR, measured: Phlpp2	25 µM		mRNA level	decreased
